Published values collected from several papers.
Lines come from different studies, so protocols differ.
Target: Tyrosine-protein kinase ZAP-70 (ZAP70, Homo sapiens, UniProt P43403)

COc1cc(Nc2nccc(-c3cnn4nc(OC)ccc34)n2)cc(C(F)(F)F)c1
remaining binding (binding, competition with immobilised ligand; 1 µM): 98%

NC(=O)[C@@H](O)C[C@H]1CCc2sc3ncnc(O[C@H]4CC[C@H](N5CCOCC5)CC4)c3c21
inhibition (enzyme activity, inhibitor; 10 µM): 3%

COc1c(Cl)cccc1Nc1c(-c2ccncc2C#C[C@@]2(C)CCCN2C(=O)/C=C/CN(C)C)[nH]c2c1C(=O)NCC2
remaining binding (binding, competition with immobilised ligand; 3 µM): 72%

CCN1CCN(Cc2ccc(NC(=O)c3ccc(C)c(NC(=O)c4cncc(-c5cnn(C)c5)c4)c3)cc2C(F)(F)F)CC1
remaining binding (binding, competition with immobilised ligand; 1 µM): 100%

C=CC(=O)N1CCCC(n2c(=O)c3ncccc3n(Cc3ccc(Oc4ccccc4)cc3)c2=O)C1 (stereo not shown)
remaining binding (cell-free assay, competition with immobilised ligand; 1 µM): 85%

Cc1cnc2nc1Nc1cccc(c1)COC/C=C/COCc1cc(ccc1OCCN1CCOCC1)N2
remaining binding (binding, competition with immobilised ligand; 0.1 µM): 89%

CN1CCN(Cc2ccc(NC(=O)c3cccc(C#Cc4cnc(N)c5ncccc45)c3)cc2C(F)(F)F)CC1
remaining binding (cell-free assay, competition with immobilised ligand; 50 nM): 78%

CCN1CCN(Cc2ccc(C(=O)Nc3ccc(C)c(NCc4cnc5[nH]ccc5c4OC)c3)cc2C(F)(F)F)CC1
remaining binding (binding, competition with immobilised ligand; 1 µM): 45%

Cc1cccc(O[C@H]2CCC[C@@H](C(C)CNCc3ccncc3)C2)c1 (relative stereo)
inhibition (enzyme activity, inhibitor; 1 µM): 4%

CCn1cc(C(=O)O)c(=O)c2c(N)c(F)c(NC3CCCCC3)cc21
inhibition (kinase activity; 0.1 µM, added: ATP at Km): 3.5%

O=C(Cc1ccc(OCc2ccccc2)cc1)NC1(C(=O)O)CCN(C(=O)c2ccc(-c3cccc(Cl)c3)cc2)CC1
activity vs control (enzyme activity, inhibitor; 10 µM): 114%

C=CC(=O)N1Cc2nc(-c3cc(-c4cc(Cl)cnc4Cl)c(F)cc3F)n(-c3ccncn3)c2C1
inhibition (cell-free assay, inhibitor; 1 µM): 4.3%

Nc1ncc(-c2cc(-c3cnn(CC(F)(F)F)c3)ncc2F)nc1C(=O)NC1CNCC(F)C1 (stereo not shown)
remaining activity (enzyme activity; 1 µM; relative to: DMSO control): 107%

C=C1CCCCCCCCCC(CO)C1=O (stereo not shown)
remaining binding (cell-free assay, competition with immobilised ligand; 10 µM): 99%

C[C@H]1CN(C(=O)c2cn(-c3ccnc(N)n3)c3cc(C#CC4(O)CCCCC4)ccc23)CCN1
inhibition (enzyme activity, inhibitor, FRET; 1 µM): 3%

CNC1C[S+]2CC[S+]3CC[S+](C1)[Ru-4]321([N]=C=S)[n]2c3ccc(OC)cc3c3c4c(c5cc(F)c[n+]1c5c32)C(=O)NC4=O (stereo not shown)
remaining binding (KinomeScan; 0.1 µM; relative to: untreated): 100%

COc1ccc(NC(=O)Nc2ccc3c(c2)C(=O)N(C(C)CO)CC(C)C(CN(C)Cc2ccc4c(c2)OCO4)O3)cc1 (stereo not shown)
remaining binding (binding, competition with immobilised ligand; 10 µM): 93%

C=CC(=O)N1CCc2ccc(-n3c(=O)ccc4cnc5ccc(-c6cnn(C)c6)cc5c43)cc21
remaining binding (KINOMEscan; 1 µM; relative to: DMSO control): 90%

C=CC(=O)Nc1cccc(-c2cnc3[nH]cc(C(=O)NC(C)(C)C)c3n2)c1
inhibition (enzyme activity, inhibitor; 0.1 µM): 28%

A few entries again:
C=CC(=O)N1Cc2nc(-c3cc(-c4cc(Cl)cnc4Cl)c(F)cc3F)n(-c3ccncn3)c2C1
inhibition (cell-free assay, inhibitor; 1 µM): 4.3%
